Measured values from different studies.
Parts stem from different laboratories: compare values within a part only.

Sample 1 — technique: protein-binding microarray; form: double-stranded DNA, one strand shown; matrix: in vitro; tested at: 940 nM top; setting: 60-bp whole probe; together with: salmon DNA 0.4 mg/ml; reference: random background probes; direction: higher = stronger binding; constant ends, left off below: GCCTAGCAC … GTCTTGATTCGCTTGACGCTGCTG
Target: Interferon regulatory factor 5, full length, phosphomimetic (IRF5, Homo sapiens, UniProt Q13568-2, residues 1-514, S451D/S453D/S456D/S462D)
| Sequence | fitted relative affinity [z-score] |
| --- | --- |
| GACGGTATACTACTGCTGACGTGCTAG | -0.19 |
| TTAGGAATGCTACTGCTTTAGTGCTAG | -0.428 |
| GTAGATCTCAGACTGGATTAGTGCTAG | -0.187 |
| TCAACTTTTATTTTCAGACTGTGCTAG | 0.858 |
| TATCAGGGCATCCCCTTGAAGTGCTAG | -0.0465 |
| GACGATATCGGGACTGGAGGCGTGCTA | -0.398 |
| GACGATTCGAGTTTCGAGACGTGCTAG | 3.4 |
| TGCTCTCCGGGGTCTGTGAGGGTGCTA | 0.15 |
| GAGGGACTGGACTATCGGGACGTGCTA | -0.525 |
| TTAGGACTCGGTATCGGTTAGTGCTAG | 3.97 |

Sample 2 — technique: protein binding microarray; form: double-stranded DNA, one strand shown; matrix: in vitro; tested at: not given; reference: not given; direction: higher = stronger binding
Target: Histone acetyltransferase KAT6A, winged helix 1, GST fusion (KAT6A, Homo sapiens, UniProt Q92794, residues 1-85)
Setting: 8-mer, flanks averaged, mean of 2 arrays, mostly near background
Target sequence (chain): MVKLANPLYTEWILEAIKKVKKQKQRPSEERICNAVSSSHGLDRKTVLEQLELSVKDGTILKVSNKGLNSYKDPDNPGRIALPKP
| Sequence | E-score |
| --- | --- |
| CTCACGCC | 0.234 |
| GGGAGCCA | -0.0122 |
| ATACATTC | -0.103 |
| ATTGCGGC | 0.306 |
| ACTTGTTG | -0.273 |
| ATCGAGAT | -0.1 |
| CTAAGGGA | -0.0602 |
| GACTTTTA | -0.112 |
| CACTGCTG | -0.102 |
| CTTACTCC | -0.029 |
| CTTTACTC | -0.131 |
| TATAGTGA | -0.146 |
| ATATCATG | -0.12 |
| AGCTCTTG | -0.264 |
| ATGCTGCC | -0.0409 |
| AATGAAAT | -0.212 |
| CAATGCAC | -0.103 |
| CGTACCCA | -0.0713 |
| ATTAGCTA | -0.2 |
| ACCAATTC | -0.207 |
| ATGTGGTA | -0.15 |
| AAAGACAG | -0.0155 |
| AACTAATA | 0.0373 |
| AACGGACC | 0.206 |
| CTTGTCTC | -0.184 |

Sample 3 — technique: RNA Bind-n-Seq; form: RNA; matrix: in vitro; tested at: 200 nM; setting: whole 134-nt RNA, ends assumed; together with: 150 mM LiCl; reference: input library; direction: higher = stronger binding; each molecule: 7-deaza-guanosine replaces G
Target: Fragile X messenger ribonucleoprotein 1, C-terminal low-complexity region (Fmr1, Mus musculus, UniProt P35922)
Constant ends, left off below: GGGAGUUCUACAGUCCGACGAUC … UGGAAUUCUCGGGUGUCAAGG
| Sequence | log2 enrichment |
| --- | --- |
| UUCACCAGUUUCACUGUGAGCCUCAACGAGCUGGAGACAGGCAUGGAGAAGACCCUGCCACCCACGGACUGCCGCCUGCGCCCUGACAUC | 1.31 |
| CACAGACAACACGCACCCACACAGACACAGAGGGAAGGGGUUGGGAUGGUGACAGGGUGCACAGCAGGGCGGGGUAGGACCCCAGCCCCU | -0.0886 |
| GUCCUGUGCUACACAUCGUAUGUACCGAAUCAAACCCCCAAAUUUAAAUUUUUUUAAAAAAGUAUUAUGUUACGCCGUUCGGAUCUGCAC | 0.933 |
| UGUGAAAGAAAACCGAAGUUUUAAAUGACUUCUCAUGGUUAUUUUUUUUCCUUUCUCUUGCAGGACAUUGGGGACACAUUGAGCAGGUAU | -1.61 |
| UAACUUUAGAGGAGGAUCUGAUGGAUAUGGCAGUGGACGUGGGUUUGGGGAUGGCUAUAAUGGGUAUGGAGGAGGACCUGGAGGUGGCAA | 0.451 |
| CUCAAGUCCUGUGCUACACAUCGUAUGUACCGAAUCGGAGGUUUGGAAAAAGGAAAGUAUUAUGUUACGCCGUUCGGAUCUGCACUUCCA | -0.768 |
| GUCCUGUGCUACACAUCGUAUGUACCGAAUCGGUUUUUUGGGGUUUUUUGGUUUUUUGGAAAGUAUUAUGUUACGCCGUUCGGAUCUGCA | -1.34 |
| UGGGAGGUGGAUCUUGUUUAUUUUUUUAGCUCAUUUCCAGGGGUGGGAAUUUUUUUUUAAUAUGUGUCAUGAAUAAAGUUGUUUUUGAAA | 0.818 |

Sample 4 — technique: RNA Bind-n-Seq; form: RNA; matrix: in vitro; tested at: 365 nM; reference: no-protein control; direction: higher = stronger binding
Target: RNA binding protein fox-1 homolog 2, RRM domain, GST-SBP tag (RBFOX2, Homo sapiens, UniProt O43251-10, residues 100-194)
Setting: natural RNA segment, single round, ends assumed
Constant ends, left off below: GGGAGUUCUACAGUCCGACGAUC … UGGAAUUCUCGGGUGCCAA
Target sequence (chain): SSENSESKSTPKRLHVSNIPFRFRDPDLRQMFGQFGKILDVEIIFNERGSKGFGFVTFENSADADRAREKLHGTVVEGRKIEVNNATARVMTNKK
| Sequence | RBNS enrichment (R) |
| --- | --- |
| AUGAGAAACCAAGAAAUGCUGCUUGUGUGGUGCUCUGCUUCCUGAGGAUUUGGCUGGAAGGGGAUUCUCCGCUGGCACAUGGGAGAAGGCCAUCUUCUGUGUCGGUGCUG | 0.918 |
| CCAAGACUGGAACAUCCUUCUGACUGGAUAAAUAAAUAAAACACCUGGGCCUCACCCUUAGACUGAGGCUGCACCCAUUCCUUAGAGGCUACUUCAGUUGCCUGACAAGA | 0.99 |
| GAAUGUUUUUGGAAAGGUGUUUUUUGGUAUGCAAGUCAGCUUUGCCUCACAGUUGAAAAUGUUCGGUCAUGAUUGCUUUUGAAACCAAAGGGGAAGGUACCGAUAUCAUU | 1.06 |
| GGUUUUUGGAGACAGGGUCUCACUGUGUAGUCCUAGCUGGCCUGGAACUCACUAUGUAGAUCAGGCUGGACUGAACUCACAAAGAUCCACCUGCCUCUGCCUCACAAAUG | 0.248 |
| UCUAUGAUAUGAAUACUGUGUGUGUGAGUUGAAGCAUUACCUGAUAUUAAAUGAAGGAUUUGGAGAAUGGUGAAUUUUUUUCUUGGUUCAUCUCUGAGUUUUGACCACAG | 0.569 |
| ACCAUGAGAAAAUAGCUUGGUCUGACCACAAUCUCCUGCUCAUGACUCUCUGAGGCUUCUUGUUAAAAUGGUUGCCUUUGUUUCUCAGUGAUAGCGAUACAGCUCAGGAA | 0.378 |
| AUAGAGUUCUCACACCGUUCAAUUUUGCACAUAUGUCCUCAUGGAUCCCCAGUUUUGUCCCUCCACUUGGGCACACGAGGUCUCAGGGGUCCUCAACCUGGGUCUGUGCC | 0.64 |
| CUUAUUUAUAAAAGGAUGAUGGCUGUAUUUUGAGUUUCUGCUGGAAACUUCCAUAAGGGGCAGCAGUUGAGGUUGGGUAGUGCUGGGCCCAGCUGAGCUGGCCUGGGAAA | 0.737 |

For quick reference, copied from above (sample 2):
| Sequence | E-score |
| --- | --- |
| AATGAAAT | -0.212 |
| CAATGCAC | -0.103 |
| CGTACCCA | -0.0713 |
| ATTAGCTA | -0.2 |
